Published values of several laboratories.
Protocols differ between the studies behind these lines.
Organism: Staphylococcus aureus

SMILES = c1ccc(CCNC2CCCc3c2[nH]c2ccc(C4CCCCC4)cc32)cc1 (centres unmarked); assay = microbial growth, broth dilution; test system = MRSA USA300; MIC = 4 µg/mL
SMILES = CC[C@H](C)[C@H](N)C1=N[C@H](C(=O)N[C@@H](CC(C)C)C(=O)N[C@H](CCC(=O)O)C(=O)N[C@H](C(=O)N[C@H]2CCCCNC(=O)[C@H](CC(N)=O)NC(=O)[C@@H](CC(=O)O)NC(=O)[C@H](Cc3c[nH]cn3)NC(=O)[C@@H](Cc3ccc4ccccc4c3)NC(=O)[C@H]([C@@H](C)CC)NC(=O)[C@@H](CCCN)NC2=O)[C@@H](C)CC)CS1; test system = USA300 MRSA; setting = 18 h, 37 °C, added: ZnSO4 0.3 mM; MIC = 1 µg/mL
SMILES = CCCCCCCCCCN1C(=O)/C(=N\NC(=N)N)c2cc(C)ccc21; assay = broth microdilution; test system = BAA41 MRSA; setting = 18 h, 37 °C; MIC = 3 µg/mL
SMILES = O=C1c2ccccc2NC(c2ccccc2O)N1/N=C/c1ccccc1O (centres unmarked); assay = microbial growth, broth dilution; test system = MRSA; setting = 24 h, drug-resistant strain, clinical isolate; MIC = > 256 µg/mL
SMILES = CN1C(=O)[C@@H]2NC(=O)[C@@H]3NC(=O)[C@@H](c4ccc(O)cc4)NC(=O)[C@H](NC(=O)C(NCc4cccc(-c5ccc(F)cc5)c4)c4ccc(O)cc4)Cc4c[nH]c5cc(ccc45)-c4cc3cc(c4O)Oc3ccc(cc3)C[C@H]1C(=O)N[C@@H](C(=O)O)c1ccc(O)c(c1)Oc1ccc2cc1 (some centres unmarked); test system = ATCC 33591 MRSA, Mueller-Hinton broth; MIC = > 128 µg/mL
SMILES = CCCCCCCCCCCCCC[S+]([O-])CC1OC(OC2C(N)CC(N)C(OC3OC(CN)C(O)CC3N)C2O)C(O)C(N)C1O (mixture of isomers); test system = methicillin-resistant; MIC = 18.8 µg/mL
SMILES = CC[C@H](C)[C@H](NC(=O)[C@H](CCCNC(=N)N)NC(=O)[C@H](CCCNC(=N)N)NC(=O)[C@H](CCCCN)NC(=O)[C@H](CC(N)=O)NC(=O)[C@H](CS)NC(=O)[C@H](Cc1ccc(O)cc1)NC(=O)CNC(=O)CNC(=O)[C@H](CCCNC(=N)N)NC(=O)[C@H](CCCCN)NC(=O)[C@H](CCCNC(=N)N)NC(=O)[C@H](CCCCN)NC(=O)[C@H](CC(C)C)NC(=O)[C@H](CC(C)C)NC(=O)[C@H](CS)NC(=O)[C@H](Cc1c[nH]cn1)NC(=O)[C@H](C)NC(=O)[C@H](C)NC(=O)[C@H](CS)NC(=O)[C@H](C)NC(=O)[C@H](C)NC(=O)[C@H](Cc1c[nH]cn1)NC(=O)[C@H](CC(N)=O)NC(=O)[C@@H](NC(=O)[C@H](CCCCN)NC(=O)[C@@H](NC(=O)CNC(=O)[C@H](CCCCN)NC(=O)[C@H](C)NC(=O)[C@H](CCC(=O)O)NC(=O)[C@H](C)NC(=O)[C@H](CO)NC(=O)[C@H](CC(C)C)NC(=O)[C@H](CC(C)C)NC(=O)[C@H](CC(=O)O)NC(=O)[C@H](CS)NC(=O)[C@@H](NC(=O)[C@@H](N)C(C)C)[C@@H](C)O)C(C)C)C(C)C)C(=O)N[C@@H](CS)C(=O)N[C@H](C(=O)N[C@@H](CS)C(=O)N[C@@H](CCCNC(=N)N)C(=O)N[C@@H](CC(N)=O)C(N)=O)C(C)C; test system = ATCC 29213; MIC = 13.2 µg/mL
SMILES = CCCCCCCCCCCCCC(=O)N[C@H](CCN)C(=O)N[C@@H]1C(=O)N[C@@H](CCN)C(=O)N[C@@H](CC(C)C)C(=O)N[C@@H](CCN)C(=O)N[C@H](Cc2ccccc2)C(=O)N[C@@H](CC(C)C)C(=O)N[C@@H](CCN)C(=O)N[C@H](CCN)C(=O)N[C@@H](C(C)C)C(=O)N[C@@H](CC(=O)O)C(=O)O[C@@H]1C; assay = broth microdilution; test system = BNCC 186335, azithromycin and penicillin resistant; MIC = 2 µg/mL
SMILES = CCCCCCCCCCCC(=O)NCCCC[C@H](N)C(=O)N[C@@H](CCCNC(=N)N)C(=O)N[C@@H](CCCNC(=N)N)C(=O)N[C@@H](CCCNC(=N)N)C(=O)N[C@@H](CCCNC(=N)N)C(=O)N[C@@H](CCCNC(=N)N)C(=O)O; assay = broth microdilution; test system = MRSA ATCC 43300; setting = 37 °C; MIC = 69.3 µg/mL
SMILES = CC[C@H](C)[C@H](NC(=O)[C@H](C)NC(=O)[C@@H]1CCCN1C(=O)[C@H](CC(C)C)NC(=O)[C@H](Cc1ccccc1)NC(=O)[C@H](CCCCN)NC(=O)[C@H](CCSC)NC(=O)[C@H](C)NC(=O)[C@H](CCSC)NC(=O)[C@H](CCCCN)NC(=O)[C@H](C)NC(=O)[C@@H](NC(=O)[C@@H](NC(=O)CNC(=O)[C@H](Cc1ccccc1)NC(=O)[C@@H](N)Cc1ccccc1)C(C)C)[C@@H](C)CC)C(=O)N[C@@H](Cc1ccccc1)C(=O)N[C@@H](CCCCN)C(=O)N[C@@H](CCC(N)=O)C(=O)N[C@H](C(=O)N[C@@H](CCC(N)=O)C(=O)N[C@@H](CCCCN)C(=O)N[C@@H](CCCCN)C(=O)N[C@@H](CCCNC(=N)N)C(=O)N[C@@H](CCCCN)C(N)=O)[C@@H](C)CC; assay = broth microdilution; test system = MRSA ATCC 33592; MIC = 1.56 to 3.12 µM
SMILES = CCO[C@H]1[C@H](O)[C@@H](N)[C@@H](O[C@H]2[C@H](O[C@@H]3O[C@H](CO)[C@@H](O[C@H]4O[C@@H](CN)[C@@H](O)[C@H](O)[C@H]4N)[C@H]3O)[C@@H](O)[C@H](N)C[C@@H]2N)O[C@@H]1CO; assay = broth microdilution; test system = MRSA isolate AG 039; MIC = 16 µg/mL
SMILES = CC[C@H](C)[C@@H]1NC(=O)[C@@H](CN)NC(=O)CNC(=O)[C@H](CC(=O)O)NC(=O)CNC(=O)[C@H](CC(=O)O)NC(=O)CNC(=O)[C@H]2CCCCN2C(=O)[C@@H](NC(=O)[C@H](CC(=O)O)NC(=O)/C=C/CCCCCCCCCC(C)C)CNC(=O)[C@@H]2CCCN2C1=O; test system = MRSA USA300; setting = 16 h, 37 °C, added: Ca2+ 10 mM; MIC = 4 µg/mL
SMILES = CCCCCCCCCCCCCCC(=O)O.O=C1CCCC2C3CCCN4CCCC(CN12)C34 (centres unmarked); assay = bacterial growth, broth dilution; test system = ATCC 29213; MIC = inactive
SMILES = CC[C@H](C)[C@H](NC(=O)[C@@H](Cc1ccccc1)NC)C(=O)OC[C@H](N)C(=O)N[C@H](CCC(N)=O)C(=O)N[C@@H](C(=O)N[C@H](C(=O)OC[C@H](N)C(=O)N[C@H]1C(=O)N[C@@H](C)C(=O)N[C@@H](C2CCCCC2)C(=O)N[C@@H]([C@@H](C)CC)C(=O)O[C@H]1C)[C@@H](C)CC)[C@@H](C)CC; assay = broth microdilution; test system = ATCC 700698, MRSA, brain heart infusion broth; setting = 16 h, 37 °C; MIC = 1 µg/mL
SMILES = C=CCCC[C@@H]1NC(=O)[C@H](CC(C)C)NC(=O)[C@H](C)NC(=O)[C@H](NC(=O)[C@H](CO)NC(=O)[C@@H](CCCCN)NC(=O)[C@@H](CCCC=C)NC(=O)[C@@H](N)Cc2ccccc2)[C@H](C)OC1=O; test system = MRSA ATCC 700698; setting = TFA salt; MIC = 4 µg/mL
SMILES = C[C@H]1COc2c(N3CCN(C)CC3)c(F)cc3c(=O)c(C(=O)O)cn1c23; assay = broth microdilution; test system = multidrug-resistant; MIC = 25 µM
SMILES = O=C1c2ccccc2NC(c2ccc([N+](=O)[O-])cc2)N1/N=C/c1ccc([N+](=O)[O-])cc1 (centres unmarked); assay = microbial growth, broth dilution; setting = 24 h, drug-resistant strain, clinical isolate; MIC = > 256 µg/mL
SMILES = CNS(=O)(=O)c1ccc(-n2nnc(/C(C)=N/NC(=N)N)c2C)cc1; assay = microbial growth, broth dilution; test system = MRSA USA300; setting = drug-resistant strain; MIC = > 64 µg/mL
SMILES = CC[C@@H](C)[C@@H](NC(=O)[C@@H](C)NC(=O)[C@@H](CCCCN)NC(=O)[C@@H](CC(C)C)NC(=O)[C@@H](C)NC(=O)[C@H](NC(=O)[C@@H](Cc1c[nH]cn1)NC(=O)[C@@H](CC(C)C)NC(=O)[C@H](NC(=O)[C@H](NC(=O)[C@@H](CCCCN)NC(=O)[C@@H](CCCCN)NC(=O)[C@@H](C)NC(=O)[C@@H](CO)NC(=O)[C@@H](CCCCN)NC(=O)[C@@H](Cc1ccccc1)NC(=O)[C@H](NC(=O)[C@@H](CCCCN)NC(=O)[C@@H](CC(C)C)NC(=O)[C@@H](Cc1ccccc1)NC(=O)[C@@H](CO)NC(=O)[C@@H](CCCCN)NC(=O)[C@@H](Cc1c[nH]c2ccccc12)NC(=O)[C@@H](CCCCN)NC(C)=O)[C@H](C)O)[C@H](C)O)C(C)C)[C@H](C)O)C(=O)N[C@H](CO)C(=O)N[C@H](CO)C(N)=O; test system = ATCC 3923; MIC = 64 µg/mL
SMILES = CC[C@H](C)[C@H](NC(=O)[C@H](CCCCN)NC(=O)[C@H](CCCCN)NC(=O)[C@H](Cc1c[nH]c2ccccc12)NC(=O)[C@H](CC(N)=O)NC(=O)[C@@H](NC(=O)COCCOCCOCCOCCOCCOCCOC(=O)NCCCCCCNC(=O)NCCCCCCNC(=O)Nc1nc(=O)cc(C)[nH]1)C(C)C)C(=O)N[C@@H](CC(C)C)C(=O)NCC(=O)N[C@@H](CCCCN)C(=O)N[C@H](C(=O)N[C@H](C(=O)N[C@@H](CCCCN)C(=O)N[C@H](C(=O)N[C@H](C(=O)N[C@@H](CCCCN)C(N)=O)C(C)C)C(C)C)[C@@H](C)CC)[C@@H](C)CC; test system = MRSA AMC 201, RPMI medium; setting = 24 h, 37 °C; MIC = 7.5 µM
SMILES = CCS(=O)(=O)[C@H]1[C@H](O)[C@@H](N)[C@@H](O[C@H]2[C@H](O[C@@H]3O[C@H](CO)[C@@H](O[C@H]4O[C@@H](CN)[C@@H](O)[C@H](O)[C@H]4N)[C@H]3O)[C@@H](O)[C@H](N)C[C@@H]2N)O[C@@H]1CO; test system = methicillin-resistant, AAC(6') ANT(4',4'') APH(3'); MIC = > 64 µg/mL
SMILES = CC[C@H](C)[C@@H]1NC(=O)CNC(=O)[C@H](CCCCN)NC(=O)[C@H](C)NC(=O)[C@H](CCC(=O)O)NC(=O)[C@H](Cc2ccccc2)NC(=O)[C@H](CO)NC(=O)[C@H](CC(C)C)NC(=O)[C@H](C(C)C)NC(=O)[C@H](CC(=O)O)NC(=O)[C@@H](NC(=O)[C@@H](NC(=O)[C@@H](N)C(C)C)[C@@H](C)O)CSSC[C@@H]2NC(=O)[C@H](CO)NC(=O)CNC(=O)CNC(=O)[C@H](CCCCN)NC(=O)[C@H](CCCCN)NC(=O)[C@H](CCCNC(=N)N)NC(=O)[C@H](CC(C)C)NC(=O)[C@H](C)NC(=O)[C@H]([C@@H](C)CC)NC(=O)[C@H](C)NC(=O)[C@H](Cc3c[nH]cn3)NC(=O)[C@H](CC(C)C)NC(=O)[C@H](C)NC(=O)[C@H](CSSC[C@@H](C(=O)N[C@H](C(=O)N[C@@H](C)C(=O)N[C@@H](CCCNC(=N)N)C(=O)N[C@@H](CC(N)=O)C(=O)O)C(C)C)NC(=O)[C@H](C(C)C)NC(=O)CNC(=O)[C@H](CC(N)=O)NC(=O)[C@H](CCC(N)=O)NC2=O)NC(=O)[C@H](C)NC(=O)[C@H](CO)NC(=O)[C@H](Cc2c[nH]cn2)NC(=O)[C@H](CC(N)=O)NC(=O)[C@H](C(C)C)NC(=O)[C@H](C)NC1=O; assay = broth microdilution; test system = KCTC 1621; setting = 16 h, 37 °C; MIC = > 100 µM
SMILES = COc1cc(/C=C/C(=O)NCCCCCC(=O)N[C@@H](CCCNC(=N)N)C(=O)N[C@@H](CC(C)C)C(=O)N[C@@H](CC(C)C)C(=O)N[C@@H](CCCNC(=N)N)C(=O)N[C@@H](CCCNC(=N)N)C(=O)N[C@@H](CC(C)C)C(=O)N[C@@H](CC(C)C)C(=O)N[C@@H](CCCNC(=N)N)C(N)=O)ccc1O; assay = broth microdilution; test system = ATCC 25923; setting = 24 h, 37 °C; MIC = 36 µM
